Literature values as cited in several papers.
UniProt Q8WXR4, sequence (whole entry, looked up): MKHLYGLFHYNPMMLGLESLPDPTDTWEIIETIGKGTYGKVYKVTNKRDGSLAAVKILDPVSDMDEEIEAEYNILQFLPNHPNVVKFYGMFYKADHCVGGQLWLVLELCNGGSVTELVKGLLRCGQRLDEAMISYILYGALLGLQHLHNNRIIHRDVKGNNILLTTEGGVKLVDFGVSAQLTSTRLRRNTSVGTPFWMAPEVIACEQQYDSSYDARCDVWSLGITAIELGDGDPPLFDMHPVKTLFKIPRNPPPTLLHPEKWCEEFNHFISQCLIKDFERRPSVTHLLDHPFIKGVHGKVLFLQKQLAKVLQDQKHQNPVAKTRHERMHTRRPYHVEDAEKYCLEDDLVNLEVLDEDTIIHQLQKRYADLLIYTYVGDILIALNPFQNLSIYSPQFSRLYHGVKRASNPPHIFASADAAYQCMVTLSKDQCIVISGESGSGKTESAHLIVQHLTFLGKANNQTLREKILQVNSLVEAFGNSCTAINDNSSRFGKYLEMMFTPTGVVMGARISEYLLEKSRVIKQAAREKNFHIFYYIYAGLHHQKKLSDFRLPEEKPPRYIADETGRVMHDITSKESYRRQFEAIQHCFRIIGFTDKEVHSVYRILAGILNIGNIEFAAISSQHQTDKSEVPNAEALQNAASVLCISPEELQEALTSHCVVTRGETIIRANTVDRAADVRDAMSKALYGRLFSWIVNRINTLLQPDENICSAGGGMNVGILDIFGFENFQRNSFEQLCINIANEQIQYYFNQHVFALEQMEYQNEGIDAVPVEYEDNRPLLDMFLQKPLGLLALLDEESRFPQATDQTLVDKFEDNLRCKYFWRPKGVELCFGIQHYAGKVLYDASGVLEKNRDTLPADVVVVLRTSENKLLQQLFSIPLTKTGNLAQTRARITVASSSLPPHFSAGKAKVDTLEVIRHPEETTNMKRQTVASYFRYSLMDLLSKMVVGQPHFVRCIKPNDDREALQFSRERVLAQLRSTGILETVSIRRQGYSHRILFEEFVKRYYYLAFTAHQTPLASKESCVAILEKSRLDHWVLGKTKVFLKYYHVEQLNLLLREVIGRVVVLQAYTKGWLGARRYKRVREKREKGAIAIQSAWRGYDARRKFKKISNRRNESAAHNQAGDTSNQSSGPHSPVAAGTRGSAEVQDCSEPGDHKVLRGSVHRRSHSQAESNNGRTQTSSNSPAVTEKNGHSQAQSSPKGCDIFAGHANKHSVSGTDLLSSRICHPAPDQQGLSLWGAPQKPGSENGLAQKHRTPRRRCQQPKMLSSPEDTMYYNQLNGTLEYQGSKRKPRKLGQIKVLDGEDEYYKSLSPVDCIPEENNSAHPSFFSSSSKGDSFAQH

`O=C(O)CN1CCN(CC(=O)O)CCN(Cc2cccc(C(=O)O)n2)CC1` has a pKa of 2.2 (free ligand; aliphatic carboxylate, first deprotonation).
For `COc1ccc(Cl)cc1C(=O)NCCc1ccc(S(=O)(=O)NC(=O)NC2CCCCC2)cc1`, the pKa was roughly 7 (NMR; phospholipid bilayer membrane).
The pKa of `Cc1ccc(C)c(OCCCC(C)(C)C(=O)O[C@@H]2O[C@H](C(=O)O)[C@@H](O)[C@H](O)[C@H]2O)c1` is reported as 3.23 (monoprotic acid).
`Nc1ncccn1` has a pKa of roughly 3.5 (literature value).
For `CCCCCCCCCCCCOS(=O)(=O)O`, the pKa was -1.5.
`O=C(O)c1cc(Cl)ccc1O` gave a pKa of 2.68.
`NCc1ccc(C(F)(F)F)cc1` gave a pKa of 8.8 (amine, free unbound form).
For `CC(C)(C)c1cc(C(C)(C)C)c(NC(=O)c2c[nH]c3ccccc3c2=O)cc1O`, the pKa was 11.6 (diprotic acid).
For `C=C(C)C(=O)O`, the pKa was roughly 4.
For `CC1(C)C[C@@H]1C(=O)N/C(=C\CCCCSC[C@H](N)C(=O)O)C(=O)O`, the pKa was 2.1.
`CNC(=C[N+](=O)[O-])NCCSCc1ccc(CN(C)C)o1` gave a pKa of 8.7.
The remaining activity of `Nc1cc(C(F)(F)F)c(-c2nc(N3CCOCC3)nc(N3CCOCC3)n2)cn1` is reported as 100% (Myosin-IIIb (MYO3B, Homo sapiens, UniProt Q8WXR4); enzyme activity; 10 µM; baseline: untreated).
The pKa of `CNCCN1C(=O)[C@H](OC(C)=O)[C@H](c2ccc(OC)cc2)Sc2ccccc21` is reported as 8.06.
`O=C(O)C(F)(F)F` gave a pKa of 0.52 (literature value, method not stated).
With `Cc1cc(=O)oc2cc(O)ccc12` the pKa was roughly 8.
The pKa of `NS(=O)(=O)c1cc2c(cc1Cl)N=CNS2(=O)=O` is reported as 6.85.
`CCCCC(CC)COC(=O)CC(C(=O)OCC(CC)CCCC)S(=O)(=O)O` (centres unmarked) has a pKa of -0.75.
The MIC of `CNC(C)C1CCC(N)C(OC2C(N)CC(N)C(OC3OCC(C)(O)C(NC)C3O)C2O)O1` (centres unmarked) is reported as greater than 8 µg/mL (Acinetobacter baumannii; clinical isolate RKI-No_231/15).
With `NCc1ccc(F)cc1` the pKa was 9.3 (amine, free unbound form).
`C=C(C)C(=O)OCCN` has a pKa of roughly 9.
`CC(C)c1nc(N(C)S(C)(=O)=O)nc(-c2ccc(F)cc2)c1/C=C/[C@@H](O)C[C@@H](O)CC(=O)O` gave a pKa of 4.27 (Simcyp input parameter).
The pKa of `C=CC(=O)N1C[C@H](Nc2ncnc3[nH]ccc23)CC[C@@H]1C` is reported as 4.85.
The pKa of `N[C@@H](CC(=O)N1CCn2c(nnc2C(F)(F)F)C1)Cc1cc(F)c(F)cc1F` is reported as 8.78.
With `CC(=O)/N=c1/sc(S(N)(=O)=O)nn1C` the pKa was 7.1 (measured: sulfonamide group).
The MIC of `CC1(C)S[C@@H]2[C@H](NC(=O)[C@H](N)c3ccccc3)C(=O)N2[C@H]1C(=O)O` is reported as greater than 16 µg/mL (Acinetobacter baumannii; clinical isolate RKI-No_230/15).
With `CCCCCCCC(=O)O` the pKa was 4.76 (literature value; vs non-fluorinated acids).

Some of these lines once more:
`C=C(C)C(=O)OCCN` has a pKa of roughly 9.
`CC(C)c1nc(N(C)S(C)(=O)=O)nc(-c2ccc(F)cc2)c1/C=C/[C@@H](O)C[C@@H](O)CC(=O)O` gave a pKa of 4.27 (Simcyp input parameter).
The pKa of `C=CC(=O)N1C[C@H](Nc2ncnc3[nH]ccc23)CC[C@@H]1C` is reported as 4.85.
The pKa of `N[C@@H](CC(=O)N1CCn2c(nnc2C(F)(F)F)C1)Cc1cc(F)c(F)cc1F` is reported as 8.78.
